{"data": "Measurements of several laboratories", "note": "Every numbered part comes from another study and shows a few of its results, in no order. Positions count from the first letter of the parent shown.", "sequence of UniProt P08172 (whole entry, looked up)": "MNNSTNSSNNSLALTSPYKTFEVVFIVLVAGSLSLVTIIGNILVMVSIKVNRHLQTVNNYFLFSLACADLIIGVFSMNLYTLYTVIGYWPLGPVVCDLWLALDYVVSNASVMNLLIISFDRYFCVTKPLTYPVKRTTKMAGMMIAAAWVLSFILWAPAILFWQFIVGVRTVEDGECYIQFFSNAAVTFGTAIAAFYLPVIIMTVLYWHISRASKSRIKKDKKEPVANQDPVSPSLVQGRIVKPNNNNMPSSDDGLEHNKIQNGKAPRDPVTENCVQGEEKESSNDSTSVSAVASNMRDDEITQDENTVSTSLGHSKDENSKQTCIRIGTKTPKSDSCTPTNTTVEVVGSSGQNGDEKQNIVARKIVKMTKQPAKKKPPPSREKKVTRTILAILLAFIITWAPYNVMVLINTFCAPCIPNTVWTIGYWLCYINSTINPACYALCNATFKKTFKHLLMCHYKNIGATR"}
{"data": "Sample 1", "target": "Microphthalmia-associated transcription factor, full length (MITF, Homo sapiens, UniProt O75030-10, residues 1-413)", "technique": "protein-binding microarray", "form": "double-stranded DNA, one strand shown", "medium": "in vitro", "tested at": "not given", "notes": "k-mer, scored over probes, only values ≥0.25", "direction": "higher = stronger binding"}
{"Strand": "ACTCACG", "E-score": 0.281}
{"Strand": "ATGTGAC", "E-score": 0.421}
{"Strand": "CTTATGA", "E-score": 0.281}
{"Strand": "CACCTGA", "E-score": 0.393}
{"Strand": "AGACACG", "E-score": 0.298}
{"Strand": "ATGACCG", "E-score": 0.266}
{"Strand": "CGTCACG", "E-score": 0.427}
{"Strand": "CACGAGC", "E-score": 0.362}
{"data": "Sample 2", "target": "RNA binding protein fox-1 homolog 2, RRM domain, GST-SBP tag (RBFOX2, Homo sapiens, UniProt O43251-10, residues 100-194)", "technique": "RNA Bind-n-Seq", "form": "RNA", "medium": "in vitro", "tested at": "365 nM", "notes": "natural RNA segment, single round, ends assumed", "baseline": "no-protein control", "direction": "higher = stronger binding", "Construct (chain)": "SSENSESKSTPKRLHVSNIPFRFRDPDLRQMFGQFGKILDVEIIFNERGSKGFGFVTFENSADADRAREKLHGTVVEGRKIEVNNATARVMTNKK"}
{"Strand": "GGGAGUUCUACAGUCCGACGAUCACUUGUUUGGUACUGGAGUAAAGGUGACUCUUGCUAUAUUUUAGCAAAGAGACUGGCUGCAUUUUGCCCCUGCCCUAGAGAUUUGUGGAACUUUGAACUCGAGGGAGAUGUGGAAUUCUCGGGUGCCAA", "RBNS enrichment (R)": 1.17}
{"Strand": "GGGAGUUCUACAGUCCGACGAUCGAUCAGCUGGCUGGGAGGAUUAGUGAGCACCUCUGUAUUUUGAGGUCUGAGUCUUCUGGAGCUGUGUAGUUAAUCUUCGGUUUCUGAUAACCCCUGGGUCCAUCUGGCCAUGGAAUUCUCGGGUGCCAA", "RBNS enrichment (R)": 0.465}
{"Strand": "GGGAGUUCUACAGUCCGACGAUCCACCUCCACUAACGCUGUCUCAGUGUUUUCUCUCUCUCUCUCGAGCUCGUAGUCCAGCGCCUGACUCUGCGUCGGCCCAUCCCACGCUGGGGCCAGCAGAAAGAAGACAGUGGAAUUCUCGGGUGCCAA", "RBNS enrichment (R)": 0.627}
{"Strand": "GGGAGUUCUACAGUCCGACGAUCUUCUUGGUCCUAAGGUUCAUAGUUGAGGCCUUCUGUUCCAGCCUUAUGCUCCCAUCUCAGAGUUCAACUCUCAUCUCAAGAUCAUGGCCUUGCCCUUGGACUCAUCCUCAUGGAAUUCUCGGGUGCCAA", "RBNS enrichment (R)": 0.474}
{"Strand": "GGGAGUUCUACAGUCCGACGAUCAGGUGAAAGAAAAUGUCAUGCAUGUAAAGAUCACAUCUGCCACUACCUUGGCACUCAGGUGCUGGUAUGUGCAUUCUUGCUUCCAAAGGAUUGACAGUAACAAAUUCUCAUGGAAUUCUCGGGUGCCAA", "RBNS enrichment (R)": 19.1}
{"Strand": "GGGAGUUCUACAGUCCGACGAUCUUUUGGCUUUAUGUCCAUUUUACCACUGUUUUUAUCCAAUAAACUAAGUCGGUAUUUUUUGUACCUUCGCCUUUCUAGGAAUGUUAAUUCUUGCUAGUUUCCUAUUUAUGUGGAAUUCUCGGGUGCCAA", "RBNS enrichment (R)": 0.43}
{"Strand": "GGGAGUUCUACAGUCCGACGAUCUGUUUUCACUUUUCCUUGUUCGGGAAUGAUAAGGGCAAUGCUUUUUGAGGUUUAACUAACAAGGAUUUACUUCCAGUAACCUGACAUAUCUCAUCUUGUCAGAGCCCUAUUGGAAUUCUCGGGUGCCAA", "RBNS enrichment (R)": 0.225}
{"Strand": "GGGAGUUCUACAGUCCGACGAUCAUUAAUUUUCAAAAAAAAGUUUUUAUAAUGAAGUUGUUUAUUAAAAACUUCUGAAUGAUGUGCUUUGAGUUUUGAACUUGUUUAUUUGGGGAGGGUUGCAGUGAGCCAGAUGGAAUUCUCGGGUGCCAA", "RBNS enrichment (R)": 1.21}
{"data": "Mixed results", "CCNE2": "CCNE2, cyclin fold, Cln2 fusion (human)", "P1": "CDC25A docking peptide (human); PPHRRRLLFACSP; partner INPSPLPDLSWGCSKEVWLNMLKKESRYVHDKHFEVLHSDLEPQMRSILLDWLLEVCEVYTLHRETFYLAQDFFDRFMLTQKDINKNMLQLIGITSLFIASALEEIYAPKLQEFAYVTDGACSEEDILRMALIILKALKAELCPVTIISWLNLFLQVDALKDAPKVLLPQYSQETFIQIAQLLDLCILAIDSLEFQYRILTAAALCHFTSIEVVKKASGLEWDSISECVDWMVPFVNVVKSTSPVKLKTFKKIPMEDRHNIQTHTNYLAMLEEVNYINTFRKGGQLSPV", "P2": "NPAT docking peptide (human); PCHRRVLCFDSTT; partner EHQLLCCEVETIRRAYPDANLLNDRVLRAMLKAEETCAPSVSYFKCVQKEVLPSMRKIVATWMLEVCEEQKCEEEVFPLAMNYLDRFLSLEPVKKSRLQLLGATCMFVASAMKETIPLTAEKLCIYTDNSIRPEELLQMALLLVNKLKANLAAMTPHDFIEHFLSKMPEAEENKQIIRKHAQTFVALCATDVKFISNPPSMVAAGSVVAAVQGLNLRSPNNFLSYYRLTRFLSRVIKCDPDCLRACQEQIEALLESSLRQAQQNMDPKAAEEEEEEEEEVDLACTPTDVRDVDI"}
{"Substance": "P1 P2V", "target": "CCNE2", "test": "yeast growth competition, sequencing", "test system": "yeast", "conditions": "strong parent motif", "scale": "baseline: not given, higher = stronger binding", "quantity": "normalised enrichment score", "result": 1.06}
{"Substance": "O=C(NC[C@@H]1[C@H]2CN(C(=O)OCc3cc(C(F)(F)F)cc(C(F)(F)F)c3)C[C@@H]12)c1ccc2[nH]nnc2c1", "target": "Muscarinic acetylcholine receptor M2 (CHRM2, Homo sapiens, UniProt P08172)", "test": "binding, radioligand binding", "conditions": "10 µM", "quantity": "inhibition", "result": "7.11%"}
{"Substance": "TLKGRRLVFDNQL", "target": "human cyclin A1", "test": "cyclin docking binding, deep mutational scanning", "test system": "peptide, yeast cyclin A1-Cln2 system", "scale": "direction not given", "quantity": "score relative, wild type, peptide", "result": 0}
{"Substance": "P2 L7A", "target": "CCND1, cyclin fold, Cln2 fusion (human)", "test": "yeast growth competition, sequencing", "test system": "yeast", "conditions": "weak parent motif", "scale": "baseline: not given, higher = stronger binding", "quantity": "normalised enrichment score", "result": -0.471}
{"Substance": "P1 H3I", "target": "CCNE2", "test": "yeast growth competition, sequencing", "test system": "yeast", "conditions": "strong parent motif", "scale": "baseline: not given, higher = stronger binding", "quantity": "normalised enrichment score", "result": 1.67}
